Experimental data gathered from unrelated publications.
Lines come from different studies, so protocols differ. Several values in a cell are separate wells, animals, samples, runs or records. ± gives the spread as reported.
HLA class I histocompatibility antigen, A alpha chain allele A*24:02: HLA class I histocompatibility antigen, A alpha chain, allele A*24:02 (Homo sapiens, UniProt P04439)
UniProt P63096, sequence (whole entry, looked up): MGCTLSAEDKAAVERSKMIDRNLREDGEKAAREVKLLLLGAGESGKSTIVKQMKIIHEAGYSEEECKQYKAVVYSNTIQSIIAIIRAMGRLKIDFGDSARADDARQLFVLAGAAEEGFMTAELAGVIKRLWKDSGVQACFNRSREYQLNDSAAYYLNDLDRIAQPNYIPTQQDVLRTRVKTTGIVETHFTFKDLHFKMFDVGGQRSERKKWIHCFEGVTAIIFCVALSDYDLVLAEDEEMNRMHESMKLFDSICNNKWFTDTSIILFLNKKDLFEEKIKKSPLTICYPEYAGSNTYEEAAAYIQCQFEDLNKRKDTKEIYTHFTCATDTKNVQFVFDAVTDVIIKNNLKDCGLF
UniProt P35372, sequence (whole entry, looked up): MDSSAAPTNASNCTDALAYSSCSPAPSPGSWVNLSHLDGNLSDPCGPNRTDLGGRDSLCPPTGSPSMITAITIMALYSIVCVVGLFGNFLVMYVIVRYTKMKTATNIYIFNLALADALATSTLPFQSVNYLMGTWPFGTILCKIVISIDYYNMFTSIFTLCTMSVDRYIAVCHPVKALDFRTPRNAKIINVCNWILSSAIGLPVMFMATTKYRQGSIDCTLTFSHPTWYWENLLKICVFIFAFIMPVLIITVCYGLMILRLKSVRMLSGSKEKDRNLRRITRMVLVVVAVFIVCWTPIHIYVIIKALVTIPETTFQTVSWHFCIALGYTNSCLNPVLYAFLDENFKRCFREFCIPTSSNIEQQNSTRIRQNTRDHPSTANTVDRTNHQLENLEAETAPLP

Nc1ccc([N+](=O)[O-])cc1  fitted curve top (human cells; reporter gene, agonist, luciferase reporter; relative to: positive control): 0%
CO[C@H]1C[C@@H]2CC[C@@H](C)[C@@](O)(O2)C(=O)C(=O)N2CCCC[C@H]2C(=O)O[C@H]([C@H](C)C[C@@H]2CC[C@@H](OC(=O)NCCOCCOCCOCCOCCOCCOCCOCCOCCC(=O)N3CCc4cc(Cn5nc(-c6ccc7oc(N)nc7c6)c6c(N)ncnc65)ccc4C3)[C@H](OC)C2)C[C@@H](O)[C@H](C)/C=C(\C)[C@@H](O)[C@@H](OC)C(=O)[C@H](C)C[C@H](C)/C=C/C=C/C=C/1C  AE leading to dose interruption (patients with advanced solid tumours; intravenous, 16 mg weekly, any grade): 100%
O=C1CCP(=S)(c2ccccc2)CC1  IL-6 level (HCT-116; ELISA; IC50, 72 h): 0.5 ± 0.28 pg/mL
COCCCn1c(N)c(C(=O)NC2CCCC2)c2nc3ccccc3nc21  viability (OCI-Ly1; 0.1 µM, 120 h): 194%
CC[C@H](C)[C@H](NC(=O)[C@@H](N)CCCNC(=N)N)C(=O)N[C@@H](Cc1ccccc1)C(=O)NCC(=O)N[C@@H](Cc1c[nH]cn1)C(=O)N1CCC[C@H]1C(=O)N[C@@H](Cc1c[nH]cn1)C(=O)N[C@@H](CC(C)C)C(=O)N[C@@H](Cc1ccccc1)C(=O)O  IC50 (HLA class I histocompatibility antigen, A alpha chain allele A*24:02; binding): 99 nM
Oc1ccc(C2(c3ccc(O)cc3)c3ccccc3-c3ccccc32)cc1  inhibition (HepG2 spheroids; cell proliferation, flow cytometry, item: Ki67; 10 µM, 24 h; relative to: solvent control): 12.1%
Nc1ncc(-c2nc(N3CCOCC3)nc(N3CCOCC3)n2)c(C(F)F)n1  GI50 (A-427; 72 h): 121 nM
Cc1cnc2ccc3c(nc(N)n3C)c2n1  plating efficiency (BALB/c 3T3; colony formation; 100 µM): 44%
CCN(CC)c1ccc(C=NNC(=O)CSc2nc3ccccc3c(=O)n2Cc2ccc(S(N)(=O)=O)cc2)c(O)c1  CC50 (SN12C; NCI five-dose screen): > 100000 nM
Nc1nc2c(ncn2[C@@H]2O[C@H](COP(=O)(O)OP(O)(O)=S)[C@@H](O)[C@H]2O)c(=O)[nH]1  IC50 (OPRM1/GNAI1 (Homo sapiens, UniProt P35372+P63096); MOR-Gi coupling; HEK293F; ratio 1:5): 33.9 nM and 43 nM and 40 nM
Nc1ncnc2c1ncn2[C@@H]1O[C@@H]2COP(=O)(O)O[C@H]3[C@@H](O)[C@H](n4cnc5c(=O)[nH]cnc54)O[C@@H]3COP(=O)(O)O[C@H]2[C@H]1O  fold enrichment (HFF-1; RNA sequencing, item: Reactome TRAF3-dependent IRF activation; upregulated pathways; relative to: mock): 16.2
C=CC(=O)N[C@H]1C=C(C)c2c(-c3cnc4ccccc4c3)c3c(N)ncnc3n2C1  selectivity ratio (NCI-H2073 EGFR SVD knock-in; cell proliferation, CellTiter-Glo; relative to: knock-in over parental NCI-H2073): 3
COc1cc(CCC[P+](c2ccccc2)(c2ccccc2)c2ccccc2)c(OC)c2c1OCO2.[I-]  GI50 (SK-MEL-5; SRB): -5.92 log M
C[C@@H](O)[C@@H](CO)NC(=O)[C@@H](CCCNC(=N)N)NC(=O)[C@@H]1CCCN1C(=O)[C@@H]1CSSC[C@H](NC(=O)[C@H](Cc2ccccc2)NC(=O)CN2CCN(CC(=O)O)CCN(CC(=O)O)CCN(CC(=O)O)CC2)C(=O)N[C@@H](Cc2ccc(O)cc2)C(=O)N[C@@H](Cc2ccccc2)C(=O)N[C@@H](CCC(N)=O)C(=O)N[C@@H](CC(N)=O)C(=O)N1 [gallium-68 labelled]  tissue uptake (Wistar rat, thyroid; intravenous, 8 MBq, 30 min, group mean): 0.27 %ID/g
CC(C)N1CCC(NC2CCN(c3cccc(-c4cc5cc(F)ccc5[nH]4)c3)CC2)CC1  GI50 (HOP-62): 1660 nM
COc1c(CCC[P+](c2ccccc2)(c2ccccc2)c2ccccc2)cc2c(c1OC)OCO2.[I-]  GI50 (SN12C; SRB): -5.62 log M
Cc1nn(-c2nc3ccc(Cl)c(Cl)c3[nH]2)c(O)c1C1OC(=O)c2ccccc21 (stereo not shown)  viability (RAW-ISG; CCK-8; 10 µM): 103% and 104% and 105%
Nc1nc2nc[nH]c2c(=S)[nH]1  surviving fraction (HCT-116 3-6; clonogenic; 2.5 µM, 10 days): 0.175
Cc1cc(C(C)(C)c2ccc(O)c(C)c2)ccc1O  spheroid area increase (HepG2 spheroids; planimetry; 5 µM, 0 to 24 h; relative to: mean area of 72 h spheroids): 123%
COc1c(C)c2c(c(O)c1C/C=C(\C)CCC(=O)O)C(=O)OC2  IC50 (Caco-2; cell proliferation; colon cancer): 1050 nM
COc1ccc(N2C(=O)N(c3c(C)cccc3Cl)Cc3cnc(Nc4ccc(C5CCN(C)CC5)cc4OC)nc32)nc1  inhibition (Ephrin type-B receptor 2 (EPHB2, Homo sapiens, UniProt P29323); kinase activity; 0.5 µM): 99%
COc1cc(C[C@H]2COC(=O)[C@@H]2Cc2ccc(O)c(OC)c2)ccc1O  PCNA level (neuroblastoma M2 (+); western blot; IC50; relative to: untreated): decreased
CN1CCN(C2(CNC3CCN(c4cccc(-c5cc6cc(F)ccc6[nH]5)c4)CC3)CCC2)CC1  GI50 (M14): 1470 nM
CC(C)C[C@H](NC(=O)[C@@H](NC(=O)[C@@H](NC(=O)[C@H](CC(=O)O)NC(=O)[C@H](Cc1ccccc1)NC(=O)[C@H](CCC(N)=O)NC(=O)[C@@H](N)CCCCN)C(C)C)[C@@H](C)O)C(=O)N[C@@H](Cc1ccc(O)cc1)C(=O)N[C@@H](Cc1ccccc1)C(=O)O  IC50 (HLA class I histocompatibility antigen, A alpha chain allele A*24:02; binding): 790 nM
COc1cc2c(Oc3ccc4[nH]c(C)cc4c3F)ccnc2cc1OCC1(N)CC1  grade 1 or 2 Cholesterol elevation (paediatric recurrent refractory sarcoma; 10 mg): 25%

Excerpt of the above:
CCN(CC)c1ccc(C=NNC(=O)CSc2nc3ccccc3c(=O)n2Cc2ccc(S(N)(=O)=O)cc2)c(O)c1  CC50 (SN12C; NCI five-dose screen): > 100000 nM
O=C1CCP(=S)(c2ccccc2)CC1  IL-6 level (HCT-116; ELISA; IC50, 72 h): 0.5 ± 0.28 pg/mL
CC[C@H](C)[C@H](NC(=O)[C@@H](N)CCCNC(=N)N)C(=O)N[C@@H](Cc1ccccc1)C(=O)NCC(=O)N[C@@H](Cc1c[nH]cn1)C(=O)N1CCC[C@H]1C(=O)N[C@@H](Cc1c[nH]cn1)C(=O)N[C@@H](CC(C)C)C(=O)N[C@@H](Cc1ccccc1)C(=O)O  IC50 (HLA class I histocompatibility antigen, A alpha chain allele A*24:02; binding): 99 nM
Nc1ncc(-c2nc(N3CCOCC3)nc(N3CCOCC3)n2)c(C(F)F)n1  GI50 (A-427; 72 h): 121 nM
